Assay results from different studies.
Each numbered part is a random draw from the data of one study; scales do not carry over between parts. Positions count from the first letter of the parent shown.

Study 1 — technique: protein binding microarray; molecule type: double-stranded DNA, one strand shown; medium: in vitro; tested at: not given; baseline: not given; reading: higher = stronger binding
Target: Histone acetyltransferase KAT6A, both winged helices, GST fusion (KAT6A, Homo sapiens, UniProt Q92794, residues 1-181)
Notes: 8-mer, flanks averaged, mean of 2 arrays, mostly near background
Residues (chain): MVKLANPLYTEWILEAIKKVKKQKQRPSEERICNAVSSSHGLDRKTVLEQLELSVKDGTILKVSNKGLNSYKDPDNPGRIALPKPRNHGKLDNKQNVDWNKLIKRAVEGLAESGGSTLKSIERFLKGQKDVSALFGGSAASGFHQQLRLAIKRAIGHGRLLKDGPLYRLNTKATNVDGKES
The E-score of `AGACCCAC` is reported as -0.129.
For `GCTGGTCA`, the E-score was -0.032.
The E-score of `CTTGCATC` is reported as -0.0959.
With `AACCCCGC` the E-score was 0.232.
`AAGGAAAC` has an E-score of -0.0435.
`CTGTTTAC` has an E-score of -0.0395.
`CTAAGCAG` has an E-score of -0.108.
`TAGGGTCA` gave an E-score of -0.146.
`CCTGGTAA` has an E-score of -0.141.
For `AGGGCCGG`, the E-score was 0.0701.
The E-score of `AAATCAGG` is reported as -0.163.
With `AACCGAGA` the E-score was -0.0042.
For `AGCACAAT`, the E-score was -0.193.
The E-score of `ATGGGATC` is reported as -0.0272.
`AGGACATC` gave an E-score of 0.037.
`AGGGAGGC` has an E-score of -0.2.
For `CTTTACCC`, the E-score was -0.0152.
`ACAATACC` has an E-score of -0.0601.
`CCTGTTCG` has an E-score of -0.0578.
`ATATTACC` gave an E-score of 0.0398.
For `AGAGCTAG`, the E-score was -0.148.
With `CCTGGCGA` the E-score was 0.0563.
`GGCCCAGA` has an E-score of -0.112.
For `CATTACAC`, the E-score was -0.0282.
With `ATTGCGGC` the E-score was 0.262.

Study 2 — technique: RNA Bind-n-Seq; molecule type: RNA; medium: in vitro; tested at: not given; baseline: input RNA pool; reading: higher = stronger binding
Target: RING finger protein unkempt homolog, zinc fingers 1-6, GST-SBP tag (UNK, Homo sapiens, UniProt Q9C0B0, residues 30-357)
Sequence of UniProt Q9C0B0 (30-357, looked up): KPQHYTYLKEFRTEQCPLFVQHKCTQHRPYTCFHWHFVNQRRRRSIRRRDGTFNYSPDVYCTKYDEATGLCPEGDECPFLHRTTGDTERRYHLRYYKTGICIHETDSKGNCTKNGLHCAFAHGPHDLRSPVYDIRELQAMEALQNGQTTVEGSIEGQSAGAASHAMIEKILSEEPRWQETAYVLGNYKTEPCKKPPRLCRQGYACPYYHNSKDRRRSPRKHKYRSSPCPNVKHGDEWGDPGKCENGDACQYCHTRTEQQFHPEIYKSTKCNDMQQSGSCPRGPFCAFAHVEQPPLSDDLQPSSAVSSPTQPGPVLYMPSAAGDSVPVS
Notes: RNA with constant flanks, human and mouse sites, ends assumed
Shared flanks, not repeated: GGGAGUUCUACAGUCCGACGAUC … CAACAGAGGAUUGAGCAUCA
For `GCUCACUUUGAUCUUGCCUUGGCACGUUCUGCUAAACUUCGAAACCCUACAAAUGACCUCUUGGUACUUCAUCUCUCUGACCUCAUUCGCAUGGCAUUCAUGGCUGCAACUGAUCAUAGC`, the bound/input enrichment was 0.156 ratio.
The bound/input enrichment of `AGCCUCAAGUUCUCCAGUGCUGGGGACUUCUUGGUGGCAGGCGUGGGACAGGAGCACAGGCUUGGCCGGUGGUGGAGGAUCAAAGAGGCCCGGAACUCAGUCUGCAUCAUCCCACUCCGC` is reported as 0.103 ratio.
`GCAGCAAUGUCAAUACAAGGUUCAGCAAAUCUGCAAACCCAGUGGAAUAUUGUAGGGGAGUUCAGCAAUUUGCCCCAAGAAGAACUUAUAGAAUGGAUCAAAUAUAGUACUAAACCAGAU` gave a bound/input enrichment of 3.41 ratio.
For `GAAUACAUUGAUCAAGGUCGGAAUCCCCAGCUCUACACCAAAGAAUGCCUGGAGAGGGCUCUAGCUAAAAACGAGCAAGUCAAGGGCAAGAUCGACACAAUGAAGAAAUUUAAAAGCCUA`, the bound/input enrichment was 0.178 ratio.
`AGGGAUAUUGGUGCUGGAAAGGGAAAAUACUAUGCUGUCAAUUUUCCCAUGAGAGAUGGUAUAGAUGAUGAAUCAUAUGGACAAAUUUUUAAGCCUAUCAUCUCAAAAGUGAUGGAGAUG` has a bound/input enrichment of 0.465 ratio.
`UUUGAUAUUCCUAGCAUGGAAUCUACCCUCAAUCAGUCGGCAAUGAUGGAGACACUUUAUUCAGAUCCUCACCACCGAGUCCGCUUCCACAACCCAAGAACCAGCACAAGUAAGGAGUUG` has a bound/input enrichment of 0.171 ratio.
With `GUAGUUUGUUGUUUAAAAUAAUGUAAUCAUCAAAAUGAUACACAUGUUACACUACUAUUAACUAGGCUUCAAUAUAUCAGUGUUUAUUUCAUUGUGUUAAAUGUAUACUUGUAAAUAAAA` the bound/input enrichment was 1.01 ratio.
For `UGAUGAGAGAAGGAUCUGCAAUGCUGUUUCUCCAGACAAGGAUGUUGAUGGCUUUCAUGUAAUUAAUGUAGGACGAAUGUGUUUGGAUCAGUAUUCCAUGUUACCGGCUACUCCAUGGGG`, the bound/input enrichment was 0.365 ratio.
`GUAUAGUAGCAAUAAUUUCUGUAUGUGAUCAAGAGUUUAUUGCAUUAUUUCUUUCCCUGUUCUCUUUUUUUUUUUUUUAAGGGUUAGCAUUAACAAAUGUCAAGGAGUAGCAAAGUCAAC` gave a bound/input enrichment of 3.26 ratio.
`CAACAGUUUGCACAAGCUCAGCUUCAUCCUUCUUCAUCAGCAUCCUUUACUCAGGCUUCUAAUGUUUCUAAUUACUCAGGUCAGACGCUGCAGCCUAUAGGGGUGACGCAUGUGCCUGUU` has a bound/input enrichment of 0.217 ratio.
`CCGCCUGAAACUCCAGUGAAAGAAAGGCUGUUUGUUGUGUUUAAUCCCCAUCCUUUGCCACUAGACGUGUUGGAGGAUAUAUUCUGCCGUUUUGGGAACCUGAUCGAGGUCUACCUUGUG` has a bound/input enrichment of 0.104 ratio.

Study 3 — technique: competition protein-binding microarray; molecule type: double-stranded DNA, one strand shown; medium: in vitro; tested at: 2 µM; with: Pho4 competitor, 0.05 µM; reading: higher = stronger binding; shared flanks, not repeated: … GTCTTGATTCGCTTGACGCTGCTG
Target: Centromere-binding protein 1, full length, His-tagged (CBF1, Saccharomyces cerevisiae, UniProt P17106, residues 1-351)
Sequence of UniProt P17106 (whole entry, looked up): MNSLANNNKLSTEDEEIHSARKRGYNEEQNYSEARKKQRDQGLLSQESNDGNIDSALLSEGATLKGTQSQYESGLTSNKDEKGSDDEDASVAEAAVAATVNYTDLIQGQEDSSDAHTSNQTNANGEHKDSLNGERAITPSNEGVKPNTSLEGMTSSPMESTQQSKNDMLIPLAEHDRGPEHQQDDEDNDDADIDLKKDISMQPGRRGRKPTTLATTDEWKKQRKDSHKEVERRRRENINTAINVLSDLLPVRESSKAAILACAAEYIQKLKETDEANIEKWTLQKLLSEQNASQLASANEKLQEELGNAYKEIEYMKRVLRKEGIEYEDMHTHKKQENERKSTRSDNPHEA
Notes: whole 60-bp probe, lowest competitor level
With `CTTCTGTAAATTTGCCCAGTGGGTGGACGCGCCCCG` the fluorescence intensity was 81.2 a.u.
With `TGCGCAACAACTTTTCACGTGTGTTTATGTCTAGAA` the fluorescence intensity was 841 a.u.
`GGCAATGGTGGCCGCTGCGTGCGATGTCTGGTGTAG` gave a fluorescence intensity of 70.9 a.u.
For `ACAATTTCAACCATCCTCGTGTCCTTGTTGTTATCT`, the fluorescence intensity was 115 a.u.
With `TCCTCTACCCGACGCTTCGTGGGTATGAGAAGTAGT` the fluorescence intensity was 62.9 a.u.
With `AACGGCGTCCGCAGAACCGTGACGGAATCTGCGGTT` the fluorescence intensity was 70.4 a.u.
For `GTCTTGTCTCATTGTCACTCAACTTTCCCCACTTCA`, the fluorescence intensity was 81.2 a.u.
With `CTAACGAAGGTTTGACGAGTGGGTGACAAGCCAAGT` the fluorescence intensity was 55.2 a.u.
`ACCCGTAGTGGATGTGGCGTGCGGATGGGACTCGAC` gave a fluorescence intensity of 72.1 a.u.
`ATGTATTACCTAACTCAGGTGATGGAGTGCTCAGAG` has a fluorescence intensity of 94.4 a.u.
The fluorescence intensity of `TGTAATTAGTTTCGTCACGCTTACATTCGCGCCCTC` is reported as 216 a.u.
`CCTGCCCTCACCATACAAAACAACCGTTTATAGATA` has a fluorescence intensity of 63.7 a.u.
With `AAATTACTAAGTTGCTATGTGGGTGACGCCGTATGA` the fluorescence intensity was 72.3 a.u.
The fluorescence intensity of `CATACCCAACCTTGTTTAGTGGGTGAAGATATTTGT` is reported as 72.1 a.u.
The fluorescence intensity of `TGCGCAACAACTTGTAACGTGGGTGTATGTCTAGAA` is reported as 84.9 a.u.
With `TGGAATGCATAAAAGAATGTGATGAAGTGTTTCCAA` the fluorescence intensity was 86.7 a.u.
The fluorescence intensity of `CCGGAACTGACTTTTATCGTGATGGGAACTTTGGGT` is reported as 71.9 a.u.
`CTAACGAAGGTTTTTCACGTGCGCTACAAGCCAAGT` gave a fluorescence intensity of 972 a.u.
The fluorescence intensity of `AAAGCGGTAATTTGGTTCGTGGGTGCAGATATCTAT` is reported as 77 a.u.
`CAGATTAAGCCCCGCCACGTGGTGGCCAAGCCAGCT` gave a fluorescence intensity of 608 a.u.
With `CGGGGTTAAGTTTTTCACGTGTCATGCTCGCAGCAG` the fluorescence intensity was 737 a.u.
`ATGTTAGCCTTTCACCACGTTCAGCAACCTTGTTGA` gave a fluorescence intensity of 77.7 a.u.
`ATAGGTTCAAACTTCGGCGTGCTAAAAGTATATACC` has a fluorescence intensity of 87.6 a.u.
`AAGAGTGGCTACAAACATGTGAGTTGACCCAAGAAT` has a fluorescence intensity of 114 a.u.
The fluorescence intensity of `GTCCCCTAAGTTCTTCACGTGTTCCCTTCTCATCGC` is reported as 1090 a.u.

Study 4 — technique: universal PBM; molecule type: double-stranded DNA, one strand shown; medium: in vitro; tested at: not given; reading: higher = stronger binding
Target: Sal-like protein 4, full length isoform B (SALL4, Homo sapiens, UniProt Q9UJQ4-2, residues 1-616)
Notes: 8-mer, flanks averaged, mean of replicates
`ACGTACTC` has an E-score of 0.0228.
With `ATCTAAGA` the E-score was 0.089.
`ACACGCTG` has an E-score of -0.0408.
For `CGGCGTCC`, the E-score was -0.349.
`GTGAACCA` has an E-score of 0.044.
`CCTTATGC` gave an E-score of 0.118.
`AACGGAAG` gave an E-score of 0.01.
`CACCAGCG` has an E-score of -0.268.
`ATGCCCGC` has an E-score of -0.194.
The E-score of `AAGCTAGG` is reported as -0.245.
The E-score of `GATATCCC` is reported as 0.0601.
`ACACACAC` has an E-score of -0.0109.
With `CACTGTCA` the E-score was -0.0374.
With `AGAGATGG` the E-score was 0.0682.
The E-score of `CCTCCTTC` is reported as -0.195.
The E-score of `TATGGCCA` is reported as 0.0949.
For `ACGGGTCT`, the E-score was -0.298.
`GAATGAAA` gave an E-score of 0.16.
With `AAATCGCC` the E-score was -0.228.
`GGAGAAAA` has an E-score of 0.0654.
`CTGTCCCC` has an E-score of -0.36.

Study 5 — target: OGT, full length, His-tagged (human); technique: phage display, sequencing; medium: in vitro; tested at: 1 µg OGT; baseline: input library; reading: higher = stronger binding; starting sequence: peptide; GDFPVMFMPKYSIIY
Notes: single substitutions, 15-mer displayed peptide, unchanged parent 5.27
`M6K` has a fold enrichment of 3.09 fold.
`F7W` gave a fold enrichment of 1.4 fold.
With `I14D` the fold enrichment was 1.62 fold.
With `Y15F` the fold enrichment was 5.08 fold.
With `M8V` the fold enrichment was 1.34 fold.
The fold enrichment of `I14R` is reported as 2.54 fold.
For `K10F`, the fold enrichment was 4.95 fold.
`Y15L` gave a fold enrichment of 5.89 fold.
`I14N` gave a fold enrichment of 1.5 fold.
For `F3S`, the fold enrichment was 4.99 fold.
With `Y11G` the fold enrichment was 0.587 fold.
The fold enrichment of `F7I` is reported as 1.08 fold.
The fold enrichment of `S12A` is reported as 6 fold.
For `G1I`, the fold enrichment was 9.59 fold.
For `D2G`, the fold enrichment was 3.97 fold.
For `M8F`, the fold enrichment was 2.43 fold.
